Assay results collected from several papers.
A part holds a random share of what one study measured.

Sample 1 — method: RNA Bind-n-Seq; form: RNA; sample: in vitro; concentration: 1 µM; setting: whole 134-nt RNA, ends assumed; added: 150 mM KCl; baseline: input library; direction: higher = stronger binding
Target: Ras GTPase-activating protein-binding protein 1, C-terminal RGG region (G3BP1, Homo sapiens, UniProt Q13283)
Chain of UniProt Q13283 (whole entry, looked up): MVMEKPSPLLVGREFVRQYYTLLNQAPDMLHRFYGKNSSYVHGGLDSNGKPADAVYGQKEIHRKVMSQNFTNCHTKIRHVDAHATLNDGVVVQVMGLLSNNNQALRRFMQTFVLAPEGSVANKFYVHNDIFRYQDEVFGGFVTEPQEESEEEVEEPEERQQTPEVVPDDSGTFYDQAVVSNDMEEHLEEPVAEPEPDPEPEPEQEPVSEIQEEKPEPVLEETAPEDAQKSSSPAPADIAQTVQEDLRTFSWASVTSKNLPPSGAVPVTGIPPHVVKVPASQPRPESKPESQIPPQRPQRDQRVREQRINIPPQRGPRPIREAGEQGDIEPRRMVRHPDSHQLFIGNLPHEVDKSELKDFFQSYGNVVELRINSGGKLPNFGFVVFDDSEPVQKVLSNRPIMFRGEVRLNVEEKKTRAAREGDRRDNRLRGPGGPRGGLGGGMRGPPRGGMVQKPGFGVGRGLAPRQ
Shared flanks, not repeated: GGGAGUUCUACAGUCCGACGAUC … UGGAAUUCUCGGGUGUCAAGG
`UGGCCCUGGUGGCAUGCGGGGAGGAGGAGGUGGCCUCAUGGAUCGUGGUGGUCCCGGUGGAAUGUUCAGAGGUGGCCGUGGUGGAGACAG` has a log2 enrichment of 2.26.
The log2 enrichment of `UGGGAGGGGGAUUUUGUUUAUUUUUUUAGCUCAUUUCCAGGGGUGGGAAUUUUUUUUUAAUAUGUGUCAUGAAUAAAGUUGUUUUUGAAA` is reported as 3.58.
With `AAGUCCUGUGCUACACAUCGUAUGUACCGAAUCGGGCCCGGGCCCGGGGCCCGGGGAAAGUAUUAUGUUACGCCGUUCGGAUCUGCACUU` the log2 enrichment was -2.48.
For `ACCAUGCAGGUGGGCAUCUUUGGGAAGUGGGGCAAGGGGGGGAUAGAGAGGGGGGUAACACUUUGGGAACAGGUGGUCCCAGGUCGUUUC`, the log2 enrichment was 2.19.
`CCUCAAGUCCUGUGCUACACAUCGUAUGUACCGAAUCGGUGGGGUGGUGGGGAAAGUAUUAUGUUACGCCGUUCGGAUCUGCACUUCCAG` gave a log2 enrichment of -0.184.
For `AAGUCCUGUGCUACACAUCGUAUGUACCGAAUCGGGUUUUGGGUUUUGGGUUUUGGGAAAGUAUUAUGUUACGCCGUUCGGAUCUGCACU`, the log2 enrichment was 0.86.
For `AGUCCUGUGCUACACAUCGUAUGUACCGAAUCGGGUUUUUGGUUUUUGGUUUUUGGGAAAGUAUUAUGUUACGCCGUUCGGAUCUGCACU`, the log2 enrichment was -1.77.
For `GCAGGAAGUAAAAACAAAUGGAAAUGCUUCGGAUAGUGGCAGGGGUGGGGGUUGCUAAGGAAAGGGUGGGAAGGGAGUGGGUAAAGAGUU`, the log2 enrichment was 2.05.
For `CUGUGCUACACAUCGUAUGUACCGAAUCGGGCCCCCCGGGGCCCCCCGGGGCCCCCCGGGGAAAGUAUUAUGUUACGCCGUUCGGAUCUG`, the log2 enrichment was -2.5.
`AGAAAGCCCAGGAGGAACCACCUGCCAAGCUGCUGGAUGACCUUUUCCGAAAGACCAAGGCAGCUCCCUGCAUCUAUUGGCUCCCACUGA` gave a log2 enrichment of -0.645.
With `UUUAGACAGAAACAAGAAGCAACAGAGUCCCUUAAGUGCCAAGAGGAACUUCGAGAGCGCCUUCAUGAGGAGUCCAGGGCCAGAGAACAG` the log2 enrichment was -0.95.
For `UCAAGUCCUGUGCUACACAUCGUAUGUACCGAAUCGGGGAAGGGAAGGGAAGGGAAAGUAUUAUGUUACGCCGUUCGGAUCUGCACUUCC`, the log2 enrichment was 2.48.
With `CCUCAAGUCCUGUGCUACACAUCGUAUGUACCGAAUCGGUUUGGAAAGGAGGAAAGUAUUAUGUUACGCCGUUCGGAUCUGCACUUCCAG` the log2 enrichment was -0.594.
With `CAAGUCCUGUGCUACACAUCGUAUGUACCGAAUCGGUUUUUGGUGGAAAAAAAGGAAAGUAUUAUGUUACGCCGUUCGGAUCUGCACUUC` the log2 enrichment was -1.59.

Sample 2 — method: protein-binding microarray; form: double-stranded DNA, one strand shown; sample: in vitro; concentration: 2200 nM top; setting: 60-bp whole probe; added: salmon DNA 0.4 mg/ml; baseline: random background probes; direction: higher = stronger binding; shared flanks, not repeated: GCCTAGCAC … GTCTTGATTCGCTTGACGCTGCTG
Target: Interferon regulatory factor 7, full length, phosphomimetic (IRF7, Homo sapiens, UniProt Q92985, residues 1-503, S471D/S472D/S475D/S476D/S477D/S483D/S484D/S487D)
Chain of UniProt Q92985 (whole entry, unmodified, looked up): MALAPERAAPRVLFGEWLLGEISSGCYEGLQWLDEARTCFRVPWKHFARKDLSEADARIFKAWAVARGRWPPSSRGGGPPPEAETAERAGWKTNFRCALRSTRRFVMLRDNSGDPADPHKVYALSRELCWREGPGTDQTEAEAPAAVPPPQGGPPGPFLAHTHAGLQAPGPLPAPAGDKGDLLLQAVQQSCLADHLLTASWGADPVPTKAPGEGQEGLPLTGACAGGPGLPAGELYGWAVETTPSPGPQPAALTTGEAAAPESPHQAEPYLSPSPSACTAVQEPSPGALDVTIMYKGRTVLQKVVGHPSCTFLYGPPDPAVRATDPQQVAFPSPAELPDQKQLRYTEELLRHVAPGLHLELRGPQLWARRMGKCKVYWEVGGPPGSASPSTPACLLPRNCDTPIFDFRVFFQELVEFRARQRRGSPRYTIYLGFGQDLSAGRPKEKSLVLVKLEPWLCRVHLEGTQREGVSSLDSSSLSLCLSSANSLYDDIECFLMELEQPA
`GACGATATCAAACTGGAGACGTGCTAG` — result for “fitted relative affinity”: -0.268 z-score.
`GACGATTTGAGTATCGAGACGTGCTAG` — result for “fitted relative affinity”: 0.545 z-score.
`GGAAATTCTCATTTCCAATTGTGCTAG`: “fitted relative affinity” 0.954 z-score.
`GACGATTTCGGGACTGGAGAGGTGCTA`: “fitted relative affinity” 1.03 z-score.
For `TTAGGACTGGGGAATCGGTTAGTGCTA`, “fitted relative affinity” read -0.334 z-score.
`CTAGGTTTCGGTATCGGTTAGTGCTAG`: “fitted relative affinity” 7.7 z-score.
For `GACGAAATCGGGTATCGAGACGTGCTA`, “fitted relative affinity” read 0.292 z-score.
`GACGATCTCAGTATCGAGCCGTGCTAG` — result for “fitted relative affinity”: 0.0836 z-score.
`TTAGGTTTCGACTATCGGGTAGTGCTA`: “fitted relative affinity” 3.31 z-score.
For `GACGATCTCAGTTGCGAGACGTGCTAG`, “fitted relative affinity” read 0.374 z-score.
`GGCGGACTGGGTTTCGGGACGTGCTAG`: “fitted relative affinity” 0.319 z-score.
For `GCCATTGTGGGTCTTGCAGAGTGCTAG`, “fitted relative affinity” read -0.27 z-score.
For `TTAGGTAGCCTTCTCCTTTAGTGCTAG`, “fitted relative affinity” read 0.35 z-score.
Under “fitted relative affinity”, `GACGATATCGGGTATCGACACGTGCTA` is recorded as 0.441 z-score.
For `GACGGTATCGACTTTAGGGACGTGCTA`, “fitted relative affinity” read -0.179 z-score.
For `GACGAACTGAGTACCGAGACGTGCTAG`, “fitted relative affinity” read -0.0399 z-score.
Under “fitted relative affinity”, `TTCGATATCAGTATCGATTAGTGCTAG` is recorded as 0.811 z-score.
For `GACGATATCAGTTTCAAGACGTGCTAG`, “fitted relative affinity” read 0.742 z-score.
Under “fitted relative affinity”, `GGTTTTCTAATGTTTTTTAAAGTGCTA` is recorded as 1.45 z-score.
For `TTAGGTTTGGGTTCCGGTTAGTGCTAG`, “fitted relative affinity” read 1.57 z-score.
For `TTAGGGCTGGGGTTTCGGTTAGTGCTA`, “fitted relative affinity” read 2.18 z-score.
`TCAGCTCTGTGCATAGTACTGTGCTAG`: “fitted relative affinity” 0.499 z-score.

Sample 3 — method: RNA Bind-n-Seq; form: RNA; sample: in vitro; concentration: 365 nM; baseline: no-protein control; direction: higher = stronger binding
Target: RNA binding protein fox-1 homolog 2, RRM domain, GST-SBP tag (RBFOX2, Homo sapiens, UniProt O43251-10, residues 100-194)
Setting: natural RNA segment, single round, ends assumed
Shared flanks, not repeated: GGGAGUUCUACAGUCCGACGAUC … UGGAAUUCUCGGGUGCCAA
For `UUGGCAACAGUCUACCUUAUUUAAAGCUUCUACUGGGAUAAACCUCAAUUCCUUUAUUCAGGAAAGGAUACUUUAUUGCAUUAUUGUUGCAGAAGCAUAGAUUUAAUUGC`, “RBNS enrichment (R)” read 0.392.
For `ACACUGGACUCCAAAGAGCAGGUGGAACAAACUCUGGCCUGAAGAUGAUGGCUAAUACUCAGGCAGAGCCCCGUAUUCUUCCCUGACUUGGUCAAAACAAACUUCCUUUU`, “RBNS enrichment (R)” read 0.57.
`GAGCUAACAUAUUUAAUUAAAUAAAUAAAUCUGGGUCUGCAUCUCUUAUUAAAUAAAAAUAUAAAAAUAUGUACAUUACAUUUUGCUUAUUUUCAUAUAAAAGGUAAGAA` — result for “RBNS enrichment (R)”: 1.01.
`AGCAUUGUGUAAAUAAAUCUGAAUGUGUUUAACUUUGUACUGGUAAUUUUCUGUAUAUUUGGAAUAUUUGGGUUAAAAAUAAAACAGACUGGACUUUGUUACCUGACCUA`: “RBNS enrichment (R)” 0.773.
`CCCUGCAUCCAGGAUGGUACCAGCUCCCGCCCCUCGCCCCCCACCUCCACAGGUGCCUUAAAGGGCCCUCGUCCACCCAAGGUGGGGGGCAGGGGCCCUCACUCUCCGGC` — result for “RBNS enrichment (R)”: 0.383.
Under “RBNS enrichment (R)”, `AACCGUUUUACACUGGAUGUUUCUCAUGUAGAACAAGAAAUCUUUCUGGAAUUGAUGUUUACAUGUCUGUUGUUGGUCAUCUCUCCUGUGUCUUAAAUACUUUAAUGUUG` is recorded as 0.579.
Under “RBNS enrichment (R)”, `AUGCACAUACUUAAAGGACAGAAAUGUCUGGUAAAGUAAUUGUUAAAUAAUGAUAUGUAGCUUUUUAACUUUUUAAAUAAAUAAGAUUUUUUAAUGUGGGUCUCCCUCAG` is recorded as 0.635.
For `CUCUUUUUUCCUUCCUCUCCUACAUCUCCCUUUUCCCCCGAUCCAAGUUGUAGAUGGAAUAGAAGCCCUUGUUGCUGUAGAUGUGCGUGCAGUCUGGCAGCCUUAAGCCC`, “RBNS enrichment (R)” read 2.49.
For `CAGUGUCACUAGAAUUUUGAAGACAGGAAAGUGGAGGUUAGUCUGUGGCCUUUUUUUCAUUUAGCCAUUGCACAGUCAGCUGCAGAAGUCCUGCUGACCACCUAGUCAUG`, “RBNS enrichment (R)” read 0.502.
For `UGGAGAGUGGGGAGAGGCACUUAAUCUGUAACCCCCAAGGAGGAAAUAACUAAGAGAUUCUUCUAGGGGUAGCUGGUGGUUGUGCCUUUUGUAGGCUGUUCCCUUUGCCU`, “RBNS enrichment (R)” read 0.463.
Under “RBNS enrichment (R)”, `GCUGGGAUUUUAAACUAGAUGACCUCAUUAACCGAUGCUUUACCAAACAGCAAACCAAGAGAUUGCUAAUUGCUGUUGAAAGCAAAAAUGCUAAUAUUAAAAGUCACAAU` is recorded as 0.369.
`AAGGAAAUAAAGGUAAAAUCACUUCAGAUCUCUAAUUAUCAAGCGAAGCUUUUAUUGUUACACUUCUUACCCUCUUUCAUAUCCAAAAUUGCCAAGUGCCUCUGCAGACU`: “RBNS enrichment (R)” 0.399.

Sample 4 — method: protein binding microarray; form: double-stranded DNA, one strand shown; sample: in vitro; concentration: not given; baseline: not given; direction: higher = stronger binding
Target: Histone acetyltransferase KAT6A, winged helix 2, GST fusion (KAT6A, Homo sapiens, UniProt Q92794, residues 85-181)
Setting: 8-mer, flanks averaged, mean of 2 arrays, mostly near background
Construct (chain): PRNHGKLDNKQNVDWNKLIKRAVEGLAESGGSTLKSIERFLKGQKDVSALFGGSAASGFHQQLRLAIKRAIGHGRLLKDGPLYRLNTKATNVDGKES
With `AGAGGGCT` the E-score was -0.0546.
For `AATGCATG`, the E-score was -0.0479.
`AGCTCCAT` has an E-score of 0.00812.
With `CATACAAG` the E-score was -0.201.
The E-score of `CGAGACAG` is reported as 0.0225.
With `CTGGTAGC` the E-score was 0.122.
`CACTGCGA` has an E-score of 0.162.
The E-score of `CGTGTAGC` is reported as -0.0557.
`AAGATGGA` gave an E-score of -0.00816.
For `AGGTTAGG`, the E-score was -0.129.
`GCTGTCCA` gave an E-score of 0.119.
With `CAGGATAA` the E-score was -0.0148.
`AGATGCCC` has an E-score of -0.0206.
For `ATGATAAA`, the E-score was 0.0701.
With `TAACGCAA` the E-score was 0.0247.
`CCTCGAGG` gave an E-score of -0.0212.
`AGACGAGA` has an E-score of -0.135.
`AGGAAGGA` gave an E-score of -0.165.
For `TTGCTAAA`, the E-score was 0.136.
For `ACGACGAG`, the E-score was -0.194.
`CGAATACC` gave an E-score of -0.0852.
`CAAGTGAC` has an E-score of -0.0892.
`ATATCCTC` has an E-score of 0.0191.
`AAAAAACT` gave an E-score of 0.0315.

Repeated from above (sample 3):
For `ACACUGGACUCCAAAGAGCAGGUGGAACAAACUCUGGCCUGAAGAUGAUGGCUAAUACUCAGGCAGAGCCCCGUAUUCUUCCCUGACUUGGUCAAAACAAACUUCCUUUU`, “RBNS enrichment (R)” read 0.57.
`GAGCUAACAUAUUUAAUUAAAUAAAUAAAUCUGGGUCUGCAUCUCUUAUUAAAUAAAAAUAUAAAAAUAUGUACAUUACAUUUUGCUUAUUUUCAUAUAAAAGGUAAGAA` — result for “RBNS enrichment (R)”: 1.01.
`AGCAUUGUGUAAAUAAAUCUGAAUGUGUUUAACUUUGUACUGGUAAUUUUCUGUAUAUUUGGAAUAUUUGGGUUAAAAAUAAAACAGACUGGACUUUGUUACCUGACCUA`: “RBNS enrichment (R)” 0.773.
`CCCUGCAUCCAGGAUGGUACCAGCUCCCGCCCCUCGCCCCCCACCUCCACAGGUGCCUUAAAGGGCCCUCGUCCACCCAAGGUGGGGGGCAGGGGCCCUCACUCUCCGGC` — result for “RBNS enrichment (R)”: 0.383.
Under “RBNS enrichment (R)”, `AACCGUUUUACACUGGAUGUUUCUCAUGUAGAACAAGAAAUCUUUCUGGAAUUGAUGUUUACAUGUCUGUUGUUGGUCAUCUCUCCUGUGUCUUAAAUACUUUAAUGUUG` is recorded as 0.579.
Under “RBNS enrichment (R)”, `AUGCACAUACUUAAAGGACAGAAAUGUCUGGUAAAGUAAUUGUUAAAUAAUGAUAUGUAGCUUUUUAACUUUUUAAAUAAAUAAGAUUUUUUAAUGUGGGUCUCCCUCAG` is recorded as 0.635.
For `CUCUUUUUUCCUUCCUCUCCUACAUCUCCCUUUUCCCCCGAUCCAAGUUGUAGAUGGAAUAGAAGCCCUUGUUGCUGUAGAUGUGCGUGCAGUCUGGCAGCCUUAAGCCC`, “RBNS enrichment (R)” read 2.49.
